Published values of several laboratories.
Lines come from different studies, so protocols differ. ± gives the spread as reported.
ALB: Albumin (ALB, Homo sapiens, UniProt P02768)
CYP3A4: Cytochrome P450 3A4 (CYP3A4, Homo sapiens, UniProt P08684)
Chain of UniProt P08684 (whole entry, looked up): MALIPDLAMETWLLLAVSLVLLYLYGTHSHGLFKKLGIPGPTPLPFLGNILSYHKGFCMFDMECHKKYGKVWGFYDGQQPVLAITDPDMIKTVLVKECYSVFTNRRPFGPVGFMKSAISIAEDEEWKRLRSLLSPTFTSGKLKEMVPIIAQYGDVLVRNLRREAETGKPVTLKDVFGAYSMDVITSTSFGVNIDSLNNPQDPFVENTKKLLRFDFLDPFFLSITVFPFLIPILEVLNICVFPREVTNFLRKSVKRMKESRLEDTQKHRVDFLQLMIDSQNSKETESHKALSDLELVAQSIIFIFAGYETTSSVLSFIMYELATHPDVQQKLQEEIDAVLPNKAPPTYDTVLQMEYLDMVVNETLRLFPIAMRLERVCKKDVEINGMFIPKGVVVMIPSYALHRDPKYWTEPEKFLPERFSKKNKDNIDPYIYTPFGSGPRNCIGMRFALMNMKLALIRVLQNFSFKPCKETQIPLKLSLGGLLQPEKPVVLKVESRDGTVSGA
Chain of UniProt P61073 (whole entry, looked up): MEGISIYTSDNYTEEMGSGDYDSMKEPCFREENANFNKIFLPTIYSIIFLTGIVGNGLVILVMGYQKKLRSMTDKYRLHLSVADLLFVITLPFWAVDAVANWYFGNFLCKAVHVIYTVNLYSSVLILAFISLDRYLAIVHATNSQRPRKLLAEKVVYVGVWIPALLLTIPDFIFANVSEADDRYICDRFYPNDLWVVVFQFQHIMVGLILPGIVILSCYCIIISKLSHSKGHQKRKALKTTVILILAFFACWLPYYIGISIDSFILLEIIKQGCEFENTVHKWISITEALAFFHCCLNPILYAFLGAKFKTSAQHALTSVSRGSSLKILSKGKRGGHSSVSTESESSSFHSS

N=C(N)NCCC[C@H](NC(=O)[C@H](Cc1c[nH]c2ccccc12)NC(=O)[C@H](CCCCN)NC(=O)[C@H](CCCNC(=N)N)NC(=O)[C@H](Cc1c[nH]c2ccccc12)NC(=O)[C@H](CCCCN)NC(=O)[C@H](CCCNC(=N)N)NC(=O)[C@H](Cc1c[nH]c2ccccc12)NC(=O)[C@H](CCCCN)NC(=O)[C@H](CCCNC(=N)N)NC(=O)[C@@H](N)Cc1c[nH]c2ccccc12)C(=O)N[C@@H](CCCCN)C(N)=O
remaining peptide (chymotrypsin; RP-HPLC; 6 h, 37 °C): < 10%

[64Cu+2].c1ccc(CNCc2ccc(CN3CCCNCCNCCCNCC3)cc2)nc1
tissue uptake (CXCR4; NOD/SCID mouse, U87 and U87-stb-CXCR4 xenografts, kidney; iv, 90 min, no blocking dose, ex vivo): 34.8 ± 0.88 %ID/g

Cc1cc(C)c(-c2cc(C)c(OP(=O)([O-])OCCC[C@H](C(=O)[O-])N3CCN(CC(=O)[O-])CCN(CP(=O)([O-])O)CCN(CC(=O)[O-])CC3)cc2C)c(C)c1.[Gd+3]
activation enthalpy of water exchange (ALB; variable temperature NMRD; HSA-bound complex; concentration not given): 6.55 kcal/mol

CN1C(=O)[C@@H](Cc2ccc(O)cc2)NC(=O)CNC(=O)[C@H](Cc2ccc3ccccc3c2)NC(=O)[C@H](CCCNC(=N)N)NC(=O)[C@H]1CCCNC(=O)c1ccc(CNC(=O)CN2CCN(CC(=O)O)CCN(CC(=O)O)CCN(CC(=O)O)CC2)cc1 [gallium-68 labelled]
SUVmax (CXCR4 (Homo sapiens, UniProt P61073); PET imaging; human, tumor): 23.3

CCCS(=O)(=O)c1ccc2[nH]c(NC(=O)OC)nc2c1
metabolised (CYP3A4; human liver fractions; 1 µM, 30 min, pH 7.4): 3.21%

CC(C)C[C@H](NC(=O)[C@H](C)NC(=O)[C@H](CC(C)C)NC(=O)[C@@H](NC(=O)CNC(=O)[C@H](CC(C)C)NC(=O)[C@@H](N)Cc1ccccc1)C(C)C)C(=O)N[C@@H](CC(C)C)C(=O)NCC(=O)N[C@H](Cc1ccc(O)cc1)C(=O)N[C@@H](CC(C)C)C(=O)N[C@@H](C)C(=O)N[C@H](C(=O)N[C@@H](CCCNC(=N)N)C(=O)N1CCC[C@H]1C(=O)N[C@H](Cc1ccccc1)C(=O)N[C@@H](CC(C)C)C(=O)N1CCC[C@H]1C(=O)N[C@@H](CCCCN)C(=O)N[C@H](CCCCN)C(=O)N[C@@H](CCCCN)C(=O)N[C@@H](CCC(N)=O)C(=O)N[C@@H](CCC(N)=O)C(=O)N[C@@H](CCCCN)C(N)=O)C(C)C
peptide cleaved (chymotrypsin; substrate, HPLC; 450 µM, 540 min, 22 °C): 65%

CC(C)(O)c1ccccc1CC[C@H](c1cccc(/C=C/c2ccc3ccc(Cl)cc3n2)c1)S(=O)(=O)CC1(CC(=O)O)CC1
inhibition (CYP3A4; human liver microsomes; 2 µM, pH 7.4, added: midazolam): 0.42%

Cc1cc(C)c(-c2cc(C)c(OP(=O)([O-])OCCC[C@H](C(=O)[O-])N3CCN(CC(=O)[O-])CCN(CC(=O)[O-])CCN(CC(=O)[O-])CC3)cc2C)c(C)c1.[Gd+3]
rotational correlation time (ALB; albumin binding, variable temperature NMRD fit; albumin-bound complex; 0.1 mM, pH 7.4, fit 5-35 °C data, added: HSA 0.66 mM): 4.3 ns

Repeated from above:
CN1C(=O)[C@@H](Cc2ccc(O)cc2)NC(=O)CNC(=O)[C@H](Cc2ccc3ccccc3c2)NC(=O)[C@H](CCCNC(=N)N)NC(=O)[C@H]1CCCNC(=O)c1ccc(CNC(=O)CN2CCN(CC(=O)O)CCN(CC(=O)O)CCN(CC(=O)O)CC2)cc1 [gallium-68 labelled]
SUVmax (CXCR4 (Homo sapiens, UniProt P61073); PET imaging; human, tumor): 23.3
